Experimental data gathered from unrelated publications.
Protocols differ between the studies behind these lines. “And” joins repeats or separate records; there may be more than shown. ± marks the error that the study gave.
PLA2G5: Phospholipase A2 group V (PLA2G5, Homo sapiens, UniProt P39877)
Chain of UniProt P39877 (whole entry, looked up): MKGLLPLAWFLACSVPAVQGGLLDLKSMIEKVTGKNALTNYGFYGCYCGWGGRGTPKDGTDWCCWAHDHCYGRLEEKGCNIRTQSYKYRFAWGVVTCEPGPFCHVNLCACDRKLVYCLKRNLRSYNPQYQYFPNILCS
CA1: Carbonic anhydrase 1 (CA1, Homo sapiens, UniProt P00915)
Chain of UniProt P00915 (whole entry, looked up): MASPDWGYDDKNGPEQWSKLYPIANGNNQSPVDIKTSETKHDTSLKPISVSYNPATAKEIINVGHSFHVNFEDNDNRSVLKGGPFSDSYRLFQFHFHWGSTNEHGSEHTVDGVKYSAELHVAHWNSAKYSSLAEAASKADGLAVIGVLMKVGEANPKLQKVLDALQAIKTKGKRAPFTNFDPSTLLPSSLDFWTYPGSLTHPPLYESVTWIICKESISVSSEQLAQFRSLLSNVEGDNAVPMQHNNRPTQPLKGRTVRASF
PSMB6: Proteasome subunit beta type-6 (PSMB6, Homo sapiens, UniProt P28072)
Chain of UniProt P28072 (whole entry, looked up): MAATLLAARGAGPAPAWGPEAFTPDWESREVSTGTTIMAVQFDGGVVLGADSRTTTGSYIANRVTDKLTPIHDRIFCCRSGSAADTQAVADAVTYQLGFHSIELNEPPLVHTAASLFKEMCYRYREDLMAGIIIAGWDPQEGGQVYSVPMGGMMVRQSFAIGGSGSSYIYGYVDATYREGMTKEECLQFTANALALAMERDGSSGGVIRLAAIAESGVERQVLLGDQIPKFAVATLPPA
CSF1R: Macrophage colony-stimulating factor 1 receptor (CSF1R, Homo sapiens, UniProt P07333)
Chain of UniProt P07333 (whole entry, looked up): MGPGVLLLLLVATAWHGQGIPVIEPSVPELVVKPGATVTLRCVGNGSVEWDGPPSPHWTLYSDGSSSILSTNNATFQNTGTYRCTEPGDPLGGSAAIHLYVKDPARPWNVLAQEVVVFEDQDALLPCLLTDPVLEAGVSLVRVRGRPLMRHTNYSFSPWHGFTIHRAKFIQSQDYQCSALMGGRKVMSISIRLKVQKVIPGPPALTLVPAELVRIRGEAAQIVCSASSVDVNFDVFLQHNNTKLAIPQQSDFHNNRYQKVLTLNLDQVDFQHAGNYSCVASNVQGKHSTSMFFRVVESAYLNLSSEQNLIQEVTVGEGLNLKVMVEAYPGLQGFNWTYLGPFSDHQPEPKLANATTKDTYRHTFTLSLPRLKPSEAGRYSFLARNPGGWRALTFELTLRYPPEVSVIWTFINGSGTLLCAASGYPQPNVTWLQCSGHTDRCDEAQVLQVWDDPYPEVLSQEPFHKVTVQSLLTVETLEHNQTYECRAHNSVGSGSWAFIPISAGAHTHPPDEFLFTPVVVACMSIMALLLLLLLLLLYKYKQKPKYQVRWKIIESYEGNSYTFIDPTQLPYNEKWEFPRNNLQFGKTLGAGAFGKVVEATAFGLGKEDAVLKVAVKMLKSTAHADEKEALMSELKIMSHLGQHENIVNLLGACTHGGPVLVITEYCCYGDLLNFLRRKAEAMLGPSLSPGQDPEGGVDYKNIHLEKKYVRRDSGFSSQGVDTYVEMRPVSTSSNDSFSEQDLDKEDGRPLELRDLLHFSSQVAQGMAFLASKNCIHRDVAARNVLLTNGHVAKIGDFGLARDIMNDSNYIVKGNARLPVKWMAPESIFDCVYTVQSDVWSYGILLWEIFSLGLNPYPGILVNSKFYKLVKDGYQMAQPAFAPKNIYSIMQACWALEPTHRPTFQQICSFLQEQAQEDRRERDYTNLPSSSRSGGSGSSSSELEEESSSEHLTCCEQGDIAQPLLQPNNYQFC
CatSper channel complex: CatSper channel complex (Homo sapiens, UniProt Q7RTX7+Q86XQ3+Q8NEC5+Q96P56)
Chain of UniProt Q96P56 (whole entry, looked up): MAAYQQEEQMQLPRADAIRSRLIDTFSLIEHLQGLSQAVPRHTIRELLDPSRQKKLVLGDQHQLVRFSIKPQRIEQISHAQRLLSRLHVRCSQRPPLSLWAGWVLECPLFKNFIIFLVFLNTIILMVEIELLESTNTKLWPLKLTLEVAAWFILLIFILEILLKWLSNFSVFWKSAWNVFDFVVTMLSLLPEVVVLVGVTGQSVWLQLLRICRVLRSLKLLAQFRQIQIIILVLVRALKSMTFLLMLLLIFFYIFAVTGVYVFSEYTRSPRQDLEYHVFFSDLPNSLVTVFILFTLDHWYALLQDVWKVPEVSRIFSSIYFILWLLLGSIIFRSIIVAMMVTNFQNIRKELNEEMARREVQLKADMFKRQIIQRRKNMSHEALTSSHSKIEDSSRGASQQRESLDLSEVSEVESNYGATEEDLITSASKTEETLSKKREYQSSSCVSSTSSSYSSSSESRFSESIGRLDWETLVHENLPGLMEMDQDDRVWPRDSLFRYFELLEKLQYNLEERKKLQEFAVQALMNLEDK
Chain of UniProt Q8NEC5 (whole entry, looked up): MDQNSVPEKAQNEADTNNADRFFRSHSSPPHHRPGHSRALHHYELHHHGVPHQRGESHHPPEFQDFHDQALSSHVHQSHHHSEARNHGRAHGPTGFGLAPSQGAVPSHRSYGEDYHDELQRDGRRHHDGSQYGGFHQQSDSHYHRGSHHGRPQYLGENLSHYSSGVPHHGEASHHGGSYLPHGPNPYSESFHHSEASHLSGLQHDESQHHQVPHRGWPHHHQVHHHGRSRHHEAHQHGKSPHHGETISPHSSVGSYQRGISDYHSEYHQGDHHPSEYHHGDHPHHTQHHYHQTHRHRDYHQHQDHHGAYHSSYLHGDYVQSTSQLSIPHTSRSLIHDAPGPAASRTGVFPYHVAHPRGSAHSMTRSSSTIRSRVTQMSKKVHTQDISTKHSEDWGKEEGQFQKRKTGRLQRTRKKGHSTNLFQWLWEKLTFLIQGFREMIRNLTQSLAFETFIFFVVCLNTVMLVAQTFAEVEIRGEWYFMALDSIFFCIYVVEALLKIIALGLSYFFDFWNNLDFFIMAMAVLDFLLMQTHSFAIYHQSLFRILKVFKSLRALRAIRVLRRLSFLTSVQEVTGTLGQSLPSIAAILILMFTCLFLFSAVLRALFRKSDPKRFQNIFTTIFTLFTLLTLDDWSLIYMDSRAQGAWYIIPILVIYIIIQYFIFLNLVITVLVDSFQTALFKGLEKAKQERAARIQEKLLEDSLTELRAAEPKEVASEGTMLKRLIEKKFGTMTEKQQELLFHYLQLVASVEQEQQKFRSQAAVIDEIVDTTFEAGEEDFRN
CYP2A6: Cytochrome P450 2A6 (CYP2A6, Homo sapiens, UniProt P11509)
KCNH2: Voltage-gated inwardly rectifying potassium channel KCNH2 (KCNH2, Homo sapiens, UniProt Q12809)
Chain of UniProt Q12809 (whole entry, looked up): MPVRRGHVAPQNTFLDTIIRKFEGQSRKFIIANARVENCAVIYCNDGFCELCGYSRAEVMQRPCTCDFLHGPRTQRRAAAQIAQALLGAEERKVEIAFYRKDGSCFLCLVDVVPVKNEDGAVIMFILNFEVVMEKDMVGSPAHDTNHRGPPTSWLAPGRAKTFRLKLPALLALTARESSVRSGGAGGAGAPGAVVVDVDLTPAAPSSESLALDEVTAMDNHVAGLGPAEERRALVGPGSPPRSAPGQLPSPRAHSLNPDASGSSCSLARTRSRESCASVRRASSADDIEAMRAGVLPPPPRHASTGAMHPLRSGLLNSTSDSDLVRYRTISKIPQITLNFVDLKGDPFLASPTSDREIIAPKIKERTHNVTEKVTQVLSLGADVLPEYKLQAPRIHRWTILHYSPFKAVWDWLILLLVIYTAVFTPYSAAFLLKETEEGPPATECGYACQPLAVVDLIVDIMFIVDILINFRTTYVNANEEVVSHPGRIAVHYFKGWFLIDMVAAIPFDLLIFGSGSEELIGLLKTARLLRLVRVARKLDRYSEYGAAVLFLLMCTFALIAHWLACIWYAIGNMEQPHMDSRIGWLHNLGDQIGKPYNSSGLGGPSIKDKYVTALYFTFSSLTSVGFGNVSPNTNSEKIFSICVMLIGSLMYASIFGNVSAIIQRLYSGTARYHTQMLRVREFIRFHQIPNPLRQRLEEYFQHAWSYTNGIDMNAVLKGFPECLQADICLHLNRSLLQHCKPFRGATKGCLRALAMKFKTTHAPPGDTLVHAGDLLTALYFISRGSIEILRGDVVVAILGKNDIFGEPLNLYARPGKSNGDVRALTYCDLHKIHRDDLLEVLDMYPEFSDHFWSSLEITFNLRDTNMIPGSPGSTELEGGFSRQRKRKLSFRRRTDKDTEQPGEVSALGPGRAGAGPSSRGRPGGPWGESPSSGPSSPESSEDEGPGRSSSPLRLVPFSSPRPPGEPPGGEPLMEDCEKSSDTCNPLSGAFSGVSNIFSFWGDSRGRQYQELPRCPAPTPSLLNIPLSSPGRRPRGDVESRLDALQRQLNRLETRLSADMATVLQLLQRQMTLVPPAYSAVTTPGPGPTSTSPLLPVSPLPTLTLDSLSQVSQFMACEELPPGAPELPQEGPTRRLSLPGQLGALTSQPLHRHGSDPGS
ABCG2: Broad substrate specificity ATP-binding cassette transporter ABCG2 (ABCG2, Homo sapiens, UniProt Q9UNQ0)
Chain of UniProt Q9UNQ0 (whole entry, looked up): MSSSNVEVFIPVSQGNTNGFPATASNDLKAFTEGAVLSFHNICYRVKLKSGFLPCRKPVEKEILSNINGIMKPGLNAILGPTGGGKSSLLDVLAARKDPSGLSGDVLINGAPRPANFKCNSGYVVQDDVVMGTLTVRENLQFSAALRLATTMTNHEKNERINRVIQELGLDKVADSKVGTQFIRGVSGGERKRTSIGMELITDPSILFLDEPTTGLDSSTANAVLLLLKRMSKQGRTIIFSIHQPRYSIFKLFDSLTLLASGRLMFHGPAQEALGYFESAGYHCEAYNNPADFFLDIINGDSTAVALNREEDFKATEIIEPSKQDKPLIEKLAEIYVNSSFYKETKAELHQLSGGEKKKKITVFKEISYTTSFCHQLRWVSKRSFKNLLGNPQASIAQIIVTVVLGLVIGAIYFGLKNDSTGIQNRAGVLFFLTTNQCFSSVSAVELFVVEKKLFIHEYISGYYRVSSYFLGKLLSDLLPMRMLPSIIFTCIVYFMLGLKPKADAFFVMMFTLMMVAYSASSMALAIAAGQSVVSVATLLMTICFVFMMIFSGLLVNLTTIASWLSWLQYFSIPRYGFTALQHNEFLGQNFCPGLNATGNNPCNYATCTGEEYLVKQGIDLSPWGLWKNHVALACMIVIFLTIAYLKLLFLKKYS

SMILES	target	assay	system	setting	IC50
COc1cc2c(cc1OC)C1CC(=O)C(CC(C)C)CN1CC2 (stereo not shown)	Synaptic vesicular amine transporter (SLC18A2, Homo sapiens, UniProt Q05940, F135A)	FFN206 uptake, inhibitor, fluorescence imaging	–	F135A mutant, together with: FFN206 5 µM	0.514 µM
C[C@H]1[C@H](F)C[C@@H](C(=O)NCc2cc(-c3cnc(C(F)(F)F)nc3)ncc2C(F)(F)F)N1S(=O)(=O)c1ccc(F)cc1	Short transient receptor potential channel 6 (TRPC6, Homo sapiens, UniProt Q9Y210)	membrane potential, antagonist	human cells	together with: carbachol 75 µM	> 20 µM
Cc1nc2ccc(Cl)cc2c(=O)n1NC1=NC(=O)CS1	PLA2G5	enzyme activity, inhibitor, colorimetric	–	–	68 ± 1.41 µM
OC1CCN(c2ccc(/C=N/NC(=S)Nc3ccc(Cl)cc3)cc2)CC1	CA1	enzyme activity, inhibitor	–	–	0.422 µM
Cc1c(OCC(F)(F)F)ccnc1CSc1nc2ccccc2[nH]1	cytochrome bc1 complex (Mycolicibacterium smegmatis, UniProt A0R052+I7GD61)	oxygen consumption, inhibitor, Clark electrode	Mycolicibacterium smegmatis, purified supercomplex	–	0.5 ± 0.2 µM
CC(C)C[C@H](NC(=O)CN1CCOCC1)C(=O)N[C@@H](CC(C)C)C(=O)N[C@H](/C=C/S(C)(=O)=O)Cc1ccc(CN)cc1	PSMB6	competitive ABPP	Raji cell lysate	–	> 10 µM
Nc1ccn([C@@H]2O[C@H](COP(=O)(O)OP(=O)(O)OP(=O)(O)O)[C@@H](O)[C@H]2O)c(=O)n1	dGTP triphosphohydrolase (Leeuwenhoekiella blandensis, UniProt A3XHN1)	dGTPase activity, inhibitor, enzyme-coupled	–	together with: 1 mM dGTP	~3200 µM
CC(C)C[C@H](NC(=O)c1cc(Cl)ccc1Cl)C(=O)N[C@@H](CC(C)C)C(=O)N[C@H](/C=C/S(C)(=O)=O)Cc1ccc(CN)cc1	PSMB6	competitive ABPP	Raji cell lysate	–	> 10 µM
OC1CCN(c2ccc(/C=N/NC(=S)Nc3ccccc3)cc2)CC1	CA1	enzyme activity, inhibitor	–	–	0.55 µM
Cc1ncc(C(=O)N[C@@H](CC2CCCC3CCCCC32)C(=O)N[C@@H](CC(C)C)C(=O)N[C@H](/C=C/S(C)(=O)=O)Cc2ccc(CN)cc2)s1 (stereo partly shown)	PSMB6	competitive ABPP	Raji cell lysate	–	> 10 µM
COc1ccc(NC(=S)N/N=C/c2cn(S(=O)(=O)c3ccc(C)cc3)c3ccccc23)cc1	mushroom tyrosinase	enzyme activity, inhibitor	–	together with: L-DOPA substrate	29.4 ± 0.6 µM
C=CC(=O)N1CCC(CNc2ncnc(N)c2-c2ccc(Oc3ccccc3)cc2)CC1	Tyrosine-protein kinase CSK (CSK, Homo sapiens, UniProt P41240)	–	–	–	> 5 µM
O=c1nc(SCc2cc(F)cc(C(F)(F)F)c2)nc(SCc2ccc3sccc3c2)[nH]1	DNA topoisomerase 2-alpha (TOP2A, Homo sapiens, UniProt P11388)	ATPase activity, inhibitor, competitive ATPase	–	together with: 0.25 mM ATP	11.9 µM
CN1CCN(c2ccc(Nc3ncc4cc(C#N)c(=O)n(C5CCCC5)c4n3)cc2)CC1	CSF1R	–	–	–	< 0.001 µM
O=c1c2ccccc2nc2n1CCc1c-2[nH]c2ccccc12	Cytochrome P450 3A2 (Cyp3a2, Rattus norvegicus, UniProt P05183)	enzyme activity, inhibitor	Sprague-Dawley rat, male, liver microsomes	30 (unit not given), pH 7.4, together with: testosterone 100 µM	16.7 µM
COc1cc(C(=O)NS(=O)(=O)c2ccccc2C)ccc1Cc1cn(C)c2ccc(NC(=O)OC3CCCC3)cc12	LRRC8A/LRRC8C (Homo sapiens, UniProt Q8IWT6+Q8TDW0, M48D/T48D)	ion current, inhibitor, whole-cell patch clamp	HCT116 LRRC8-/- transfected	at -100 mV	56 µM
COc1ccc(C[C@H](NC(=O)[C@H](C)NC(=O)CN2CCOCC2)C(=O)N[C@H](C(=O)[C@@]2(C)CO2)C2CCCCC2)cc1	PSMB6	competitive ABPP	Raji cell lysate	–	> 10 µM
Cc1ccc(CNC(=S)N/N=C/c2cn(S(=O)(=O)c3ccc(C)cc3)c3ccccc23)cc1	mushroom tyrosinase	enzyme activity, inhibitor	–	together with: L-DOPA substrate	28.6 ± 0.47 µM
O=C(O)CCc1nccc2c1[nH]c1ccccc12	Solute carrier family 22 member 12 (SLC22A12, Homo sapiens, UniProt Q96S37)	14C-uric acid uptake, inhibitor	HEK293 expressing URAT1	–	no inhibition
O=C(Nc1cccc(C(F)(F)F)c1)N1CCN(c2cccc(C(F)(F)F)c2)CC1	CatSper channel complex	calcium influx, inhibitor, FLIPR	human sperm	together with: high pH, high potassium	9.2 µM
N#Cc1ccc([C@H]2CCc3cncn32)c(F)c1	CYP2A6	inhibitor, measured: coumarin 7-hydroxylation	pooled human liver microsomes	pH 7.4, together with: coumarin 1 µM	> 100 µM
COc1ccc(C[C@H](N)C(=O)N[C@H]2[C@@H](O)[C@H](n3cnc4c(N(C)C)ncnc43)O[C@@H]2CO)cc1	rat neuron-specific aminopeptidase	enzyme activity, inhibitor	–	–	1 µM
COC[C@H](NC(=O)[C@H](CC(C)C)NC(=O)[C@H](Cc1ccccc1)N=[N+]=[N-])C(=O)N[C@H](/C=C/S(C)(=O)=O)Cc1ccc(CN)cc1	PSMB6	competitive ABPP	Raji cell lysate	–	> 10 µM

SMILES	target	assay	system	setting	IC50
CCCCNCc1ccc2[nH]c3c(C)c4ccncc4c(C)c3c2c1	Toll-like receptor 3 (Homo sapiens, UniProt O15455)	reporter gene, inhibitor	HEK-Blue hTLR3	together with: poly(I:C)	0.12 ± 0.04 µM
CCn1c(-c2nc3cc(C(=O)N4CCC[C@@H](N)C4)cc(OC)c3n2C)cc2cccnc21	Acetylcholine receptor subunit alpha (CHRNA1, Homo sapiens, UniProt P02708)	intracellular calcium, antagonist, fluorescence	–	–	2 µM
COc1ccc2cc(/C=N/n3c(C)nc4ccc(Br)cc4c3=O)ccc2c1	PLA2G5	enzyme activity, inhibitor, colorimetric	–	–	34.1 ± 1 µM
c1ccc(CN(CCN(Cc2ccccn2)Cc2ccccn2)Cc2ccccn2)cc1	Proteasome subunit beta type-6, caspase-like site (PSMB6, Homo sapiens, UniProt P28072)	caspase-like activity, inhibitor, purified 20S proteasome	–	pH 7.4, together with: 20 µM Z-LLE-AMC	> 1000 µM
OC[C@@H]1[C@@H](O)[C@H](O)[C@@H](O)[C@@H]2O[C@H]12	Oligosaccharide 4-alpha-D-glucosyltransferase (agd31B, Cellvibrio japonicus, UniProt B3PEE6)	enzyme activity, inhibitor	–	30 min preincubation, pH 6.5, 25 °C	> 100 µM
Cc1cnc(-c2ccc(-c3ccc(NC(=O)Nc4c(F)cc(F)cc4F)cc3F)c3c2C(=O)NC3)[nH]1	CSF1R	enzyme activity, inhibitor, mobility shift	–	together with: ATP 1 mM	0.0445 µM
Cc1nc(F)ccc1-c1cc(Cn2ccn(C)c2=N)cc(C(=O)NCc2ccc(Cl)c(Cl)c2)c1	WD repeat-containing protein 5, SETD1A complex (WDR5, Homo sapiens, UniProt P61964)	SETD1A methyltransferase activity, inhibitor	–	together with: core histones substrate	> 20 µM
CC1(F)CN(C(=O)Cn2c(=O)c(C(=O)NCc3ccc(Cl)cc3)cc3nc(N4CCN(CC(=O)O)C4=O)cnc32)C1	KCNH2	ion current, automated patch clamp	CHO expressing hERG	–	24 µM
O=C1C(=O)N(Cc2ccc(Cc3ccc(CN4C(=O)C(=O)c5ccccc54)cc3)cc2)c2ccccc21	Replicase polyprotein 1ab, 3C-like proteinase (Feline coronavirus, UniProt Q98VG9)	protease activity, inhibitor	–	together with: 6 µM fluorogenic substrate	10.3 ± 2.57 µM
Cc1ncc(C(=O)N[C@@H](CC2CCC(C3CCCCC3)CC2)C(=O)N[C@@H](CC(C)C)C(=O)N[C@H](/C=C/S(C)(=O)=O)Cc2ccc(CN)cc2)s1 (stereo partly shown)	PSMB6	competitive ABPP	Raji cell lysate	–	> 10 µM
Cc1cc2c(F)c(Oc3ncnn4cc(OC[C@@H](C)O)c(C)c34)ccc2[nH]1	ABCG2	inhibitor	–	30 min	6.98 µM
CC[C@@H]1[C@H](F)C(=O)N[C@@H]1COc1nccc2cc(C(N)=O)c(OC)cc12	Serine/threonine-protein kinase 38 (STK38, Homo sapiens, UniProt Q15208)	ATP-site probe binding, ActivX profiling	THP-1 cell lysate	Lys1 site	0.6 µM
CCOc1cc(-c2nncn2C)ccc1Nc1ncc2cc(C)nc(NCC(C)(C)C)c2n1	CYP2A6	enzyme activity, inhibitor	–	–	> 50 µM
CCN(CC)CCNC(=O)C1CCN(c2ccc3nnc(-c4cccc(C)c4)n3n2)CC1	CatSper channel complex	calcium influx, inhibitor, FLIPR	human sperm	together with: high pH, high potassium	11 µM
Cc1nn(C)c2ncc(C(=O)Nc3ccccc3)c(Cl)c12	Malate dehydrogenase, mitochondrial (MDH2, Sus scrofa, UniProt P00346)	enzyme activity, reporter counter-screen	–	native enzyme	> 63 µM
C[C@H](O)C(=O)C1=Nc2c(nc(N)[nH]c2=O)NC1	ABCG2	inhibitor	–	estimated	648 µM
O=C(Nc1ccc(-c2nc3ccccc3[nH]2)cc1)c1cccc(Cl)c1	Tyrosine-protein kinase SYK, with FCER1G (SYK, Homo sapiens, UniProt P43405)	inhibitor, TR-FRET	–	counter screen	> 100 µM
Cc1ccc(S(=O)(=O)n2cc(/C=N/NC(=S)Nc3cc(C)cc(C)c3)c3ccccc32)cc1	mushroom tyrosinase	enzyme activity, inhibitor	–	together with: L-DOPA substrate	20.6 ± 0.35 µM
CNCC(=O)O	Sodium- and chloride-dependent glycine transporter 2 (Homo sapiens, UniProt Q9Y345, S479G)	[3H]glycine uptake, inhibitor	–	–	67 µM
CC1(F)CN(C(=O)Cn2c(=O)c(C(=O)NCc3ccc(Cl)cc3)cc3nc(N4CCOC4=O)cnc32)C1	KCNH2	potassium current, inhibitor, automated patch clamp	CHO cells expressing hERG	–	5.6 µM
OC1CCN(c2ccc(/C=N/NC(=S)Nc3ccc(Br)cc3)cc2)CC1	CA1	enzyme activity, inhibitor	–	–	0.478 µM
Cc1ccc(S(=O)(=O)n2cc(/C=N/NC(=S)Nc3ccc([N+](=O)[O-])cc3)c3ccccc32)cc1	mushroom tyrosinase	enzyme activity, inhibitor	–	together with: L-DOPA substrate	7.26 ± 0.18 µM
COc1ccc2c3c([nH]c2c1)[C@H](CC(C)C)N1C(=O)[C@H](CC(=O)NC(C)C)NC(=O)[C@@H]1C3	ABCG2	inhibitor, measured: protoporphyrin IX	A549	2 h, together with: 1 mM ALA	0.22 µM and 0.25 µM and 0.307 µM and 0.297 µM

Excerpt of the above:
SMILES	target	assay	system	setting	IC50
CC(C)C[C@H](NC(=O)CN1CCOCC1)C(=O)N[C@@H](CC(C)C)C(=O)N[C@H](/C=C/S(C)(=O)=O)Cc1ccc(CN)cc1	PSMB6	competitive ABPP	Raji cell lysate	–	> 10 µM
Cc1ccc(S(=O)(=O)n2cc(/C=N/NC(=S)Nc3ccc([N+](=O)[O-])cc3)c3ccccc32)cc1	mushroom tyrosinase	enzyme activity, inhibitor	–	together with: L-DOPA substrate	7.26 ± 0.18 µM
O=c1nc(SCc2cc(F)cc(C(F)(F)F)c2)nc(SCc2ccc3sccc3c2)[nH]1	DNA topoisomerase 2-alpha (TOP2A, Homo sapiens, UniProt P11388)	ATPase activity, inhibitor, competitive ATPase	–	together with: 0.25 mM ATP	11.9 µM
